Assay results collected from several papers.
Lines come from different studies, so protocols differ. Several values in a cell are separate wells, animals, samples, runs or records. Numbers after ± are the reported error.
SIK1: Serine/threonine-protein kinase SIK1 (SIK1, Homo sapiens, UniProt P57059)
Chain of UniProt A5GZW8 (whole entry, looked up): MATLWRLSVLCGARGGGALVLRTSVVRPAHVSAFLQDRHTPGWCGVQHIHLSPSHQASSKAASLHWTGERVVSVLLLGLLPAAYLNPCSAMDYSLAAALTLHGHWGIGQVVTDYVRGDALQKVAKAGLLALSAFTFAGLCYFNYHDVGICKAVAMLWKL
Chain of UniProt Q007T0 (whole entry, looked up): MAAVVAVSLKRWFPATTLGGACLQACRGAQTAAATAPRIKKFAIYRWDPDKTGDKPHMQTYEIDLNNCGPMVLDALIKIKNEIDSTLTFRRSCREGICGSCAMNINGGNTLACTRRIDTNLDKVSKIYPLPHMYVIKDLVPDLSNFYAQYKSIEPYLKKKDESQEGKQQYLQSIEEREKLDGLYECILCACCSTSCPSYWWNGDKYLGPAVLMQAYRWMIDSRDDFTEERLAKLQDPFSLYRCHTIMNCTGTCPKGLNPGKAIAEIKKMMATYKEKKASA
Chain of UniProt D0VWV4 (whole entry, looked up): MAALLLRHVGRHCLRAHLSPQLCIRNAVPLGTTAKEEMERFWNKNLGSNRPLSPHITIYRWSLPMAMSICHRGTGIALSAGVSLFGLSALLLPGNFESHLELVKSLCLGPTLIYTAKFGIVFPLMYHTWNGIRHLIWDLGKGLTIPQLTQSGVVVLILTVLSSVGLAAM
Chain of UniProt P57059 (whole entry, looked up): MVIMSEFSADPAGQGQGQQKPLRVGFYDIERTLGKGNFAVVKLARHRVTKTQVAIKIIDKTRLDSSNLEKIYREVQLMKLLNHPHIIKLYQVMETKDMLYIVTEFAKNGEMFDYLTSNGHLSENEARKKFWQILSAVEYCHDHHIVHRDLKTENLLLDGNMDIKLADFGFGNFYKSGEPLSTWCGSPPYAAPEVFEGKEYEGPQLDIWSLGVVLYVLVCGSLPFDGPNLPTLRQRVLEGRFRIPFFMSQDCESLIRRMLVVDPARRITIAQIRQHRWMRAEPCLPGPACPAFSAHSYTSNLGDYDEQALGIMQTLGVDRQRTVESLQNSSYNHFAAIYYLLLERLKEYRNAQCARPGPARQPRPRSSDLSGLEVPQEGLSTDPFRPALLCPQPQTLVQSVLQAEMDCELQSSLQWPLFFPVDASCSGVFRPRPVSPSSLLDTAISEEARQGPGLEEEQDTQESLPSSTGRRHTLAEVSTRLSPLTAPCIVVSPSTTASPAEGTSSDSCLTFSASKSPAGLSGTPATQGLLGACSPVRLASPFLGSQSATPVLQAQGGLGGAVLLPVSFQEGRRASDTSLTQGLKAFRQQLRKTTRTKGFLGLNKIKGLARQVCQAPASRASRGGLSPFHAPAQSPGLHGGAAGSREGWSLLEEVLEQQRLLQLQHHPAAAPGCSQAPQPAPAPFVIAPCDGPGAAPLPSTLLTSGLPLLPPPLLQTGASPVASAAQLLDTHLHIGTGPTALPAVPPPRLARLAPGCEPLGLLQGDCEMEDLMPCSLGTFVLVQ
Chain of UniProt P20782 (whole entry, looked up): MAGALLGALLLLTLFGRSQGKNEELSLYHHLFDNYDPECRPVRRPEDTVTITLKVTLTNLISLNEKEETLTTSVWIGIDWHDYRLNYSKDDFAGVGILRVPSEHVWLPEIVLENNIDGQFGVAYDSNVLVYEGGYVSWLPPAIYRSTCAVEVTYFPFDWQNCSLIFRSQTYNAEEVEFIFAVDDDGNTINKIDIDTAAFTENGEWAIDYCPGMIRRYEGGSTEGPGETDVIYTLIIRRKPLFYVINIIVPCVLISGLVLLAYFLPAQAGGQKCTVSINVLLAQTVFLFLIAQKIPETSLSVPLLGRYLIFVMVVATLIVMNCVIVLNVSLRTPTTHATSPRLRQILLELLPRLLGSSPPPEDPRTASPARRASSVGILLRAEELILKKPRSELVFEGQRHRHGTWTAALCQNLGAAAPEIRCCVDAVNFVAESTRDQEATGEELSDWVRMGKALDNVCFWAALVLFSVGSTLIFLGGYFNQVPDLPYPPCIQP
Chain of UniProt Q9HAZ1 (whole entry, looked up): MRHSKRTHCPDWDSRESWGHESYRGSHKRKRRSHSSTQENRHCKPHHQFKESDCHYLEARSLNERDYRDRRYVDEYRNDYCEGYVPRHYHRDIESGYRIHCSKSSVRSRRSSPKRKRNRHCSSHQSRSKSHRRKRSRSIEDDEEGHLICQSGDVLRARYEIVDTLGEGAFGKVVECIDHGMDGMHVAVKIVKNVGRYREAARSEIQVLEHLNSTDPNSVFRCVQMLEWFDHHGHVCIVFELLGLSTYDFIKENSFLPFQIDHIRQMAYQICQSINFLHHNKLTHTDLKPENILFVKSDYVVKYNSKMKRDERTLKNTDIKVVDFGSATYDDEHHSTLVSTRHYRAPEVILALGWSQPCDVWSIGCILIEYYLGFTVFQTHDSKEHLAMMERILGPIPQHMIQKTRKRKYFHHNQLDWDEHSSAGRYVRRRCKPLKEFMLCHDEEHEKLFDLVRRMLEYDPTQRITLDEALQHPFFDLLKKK
Chain of UniProt P19525 (whole entry, looked up): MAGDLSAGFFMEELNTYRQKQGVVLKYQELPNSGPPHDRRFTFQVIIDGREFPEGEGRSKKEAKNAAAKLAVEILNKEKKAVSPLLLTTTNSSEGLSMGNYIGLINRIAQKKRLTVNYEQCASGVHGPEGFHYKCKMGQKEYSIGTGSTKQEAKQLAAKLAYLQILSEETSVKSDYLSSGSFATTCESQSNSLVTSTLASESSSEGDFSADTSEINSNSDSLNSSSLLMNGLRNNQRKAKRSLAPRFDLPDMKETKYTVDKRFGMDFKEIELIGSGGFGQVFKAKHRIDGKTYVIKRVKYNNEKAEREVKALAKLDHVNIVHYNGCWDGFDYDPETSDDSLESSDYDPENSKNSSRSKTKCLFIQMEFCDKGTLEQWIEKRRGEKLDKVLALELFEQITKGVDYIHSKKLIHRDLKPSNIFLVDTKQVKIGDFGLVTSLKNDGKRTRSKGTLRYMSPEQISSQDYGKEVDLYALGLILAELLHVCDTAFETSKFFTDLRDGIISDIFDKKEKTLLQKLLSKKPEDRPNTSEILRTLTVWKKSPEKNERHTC
Chain of UniProt P02716 (whole entry, looked up): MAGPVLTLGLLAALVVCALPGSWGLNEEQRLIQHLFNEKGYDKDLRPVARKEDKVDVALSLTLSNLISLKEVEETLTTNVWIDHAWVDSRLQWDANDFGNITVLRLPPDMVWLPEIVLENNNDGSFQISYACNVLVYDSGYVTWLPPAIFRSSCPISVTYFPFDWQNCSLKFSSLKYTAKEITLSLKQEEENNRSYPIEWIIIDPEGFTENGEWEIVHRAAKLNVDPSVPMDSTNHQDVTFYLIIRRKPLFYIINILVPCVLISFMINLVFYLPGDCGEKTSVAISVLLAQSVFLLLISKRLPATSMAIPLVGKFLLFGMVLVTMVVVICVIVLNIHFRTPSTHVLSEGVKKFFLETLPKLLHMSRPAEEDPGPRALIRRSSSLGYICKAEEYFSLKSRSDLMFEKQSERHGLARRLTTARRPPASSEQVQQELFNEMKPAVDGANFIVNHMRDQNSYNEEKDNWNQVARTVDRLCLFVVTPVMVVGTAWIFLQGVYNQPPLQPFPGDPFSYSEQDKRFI
Chain of UniProt P07197 (whole entry, looked up): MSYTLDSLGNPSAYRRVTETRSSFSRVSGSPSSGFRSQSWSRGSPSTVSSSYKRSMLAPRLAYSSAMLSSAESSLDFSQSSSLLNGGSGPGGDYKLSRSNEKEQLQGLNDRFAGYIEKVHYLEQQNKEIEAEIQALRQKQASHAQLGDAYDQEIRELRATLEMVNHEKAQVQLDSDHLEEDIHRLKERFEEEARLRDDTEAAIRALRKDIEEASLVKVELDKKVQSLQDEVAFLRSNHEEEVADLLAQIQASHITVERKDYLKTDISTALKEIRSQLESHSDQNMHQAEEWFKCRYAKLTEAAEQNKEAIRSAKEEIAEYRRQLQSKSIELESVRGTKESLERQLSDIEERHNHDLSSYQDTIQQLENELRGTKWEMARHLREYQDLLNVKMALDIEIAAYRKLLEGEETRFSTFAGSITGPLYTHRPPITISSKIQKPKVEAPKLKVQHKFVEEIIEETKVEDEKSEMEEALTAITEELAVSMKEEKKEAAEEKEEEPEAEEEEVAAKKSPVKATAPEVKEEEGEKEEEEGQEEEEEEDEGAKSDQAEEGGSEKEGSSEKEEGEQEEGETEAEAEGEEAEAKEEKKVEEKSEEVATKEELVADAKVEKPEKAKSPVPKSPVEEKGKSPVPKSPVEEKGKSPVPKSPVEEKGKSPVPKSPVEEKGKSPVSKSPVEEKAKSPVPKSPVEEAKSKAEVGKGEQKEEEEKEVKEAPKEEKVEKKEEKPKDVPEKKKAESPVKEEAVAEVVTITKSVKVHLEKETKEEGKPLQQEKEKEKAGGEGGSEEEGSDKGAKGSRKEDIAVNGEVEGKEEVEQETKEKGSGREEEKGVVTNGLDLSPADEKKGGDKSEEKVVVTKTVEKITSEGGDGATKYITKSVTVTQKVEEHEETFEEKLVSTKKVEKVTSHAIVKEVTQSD
Chain of UniProt P52699 (whole entry, looked up): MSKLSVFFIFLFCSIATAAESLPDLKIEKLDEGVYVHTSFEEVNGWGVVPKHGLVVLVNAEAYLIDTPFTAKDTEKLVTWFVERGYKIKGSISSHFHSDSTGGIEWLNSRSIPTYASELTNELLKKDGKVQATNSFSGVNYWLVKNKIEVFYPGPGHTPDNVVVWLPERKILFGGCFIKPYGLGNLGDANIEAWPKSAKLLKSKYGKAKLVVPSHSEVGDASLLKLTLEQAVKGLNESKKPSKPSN
Chain of UniProt Q99720 (whole entry, looked up): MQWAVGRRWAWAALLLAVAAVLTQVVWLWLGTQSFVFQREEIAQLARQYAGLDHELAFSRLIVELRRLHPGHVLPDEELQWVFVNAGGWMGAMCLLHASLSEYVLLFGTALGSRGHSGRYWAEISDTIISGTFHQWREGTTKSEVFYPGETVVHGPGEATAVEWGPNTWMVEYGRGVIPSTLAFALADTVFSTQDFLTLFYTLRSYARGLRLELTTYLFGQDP

SMILES	target	test	system	conditions	how to read	measurement	result
O=C(Nc1cccnn1)N1CCC(=Cc2cccc(Oc3ccc(C(F)(F)F)cn3)c2)CC1	Talin-2 (Rattus norvegicus, UniProt A0A8I5Y6H9)	competitive ABPP with azido-FP probe	rat brain soluble fraction	0.01 µM, unit not given	relative to: DMSO	probe labelling	-4.4
C=C(CN(C(=O)c1c(C(F)F)nn(C)c1F)C1CC1)c1ccc(Cl)cc1Cl	SDHD/SDHC/SDHB (Sus scrofa, UniProt A5GZW8+D0VWV4+Q007T0)	enzyme activity, inhibitor, DCIP reduction	pig	0.06 µM, added: DCIP 20 µM	–	reaction velocity	0.00827 µM/s and 0.00799 µM/s and 0.0092 µM/s
Nc1ncc(-c2nc(N3CCOCC3)nc(N3CCOCC3)n2)c(C(F)F)n1	SIK1	KINOMEscan	–	10 µM	relative to: control	remaining binding	100%
COC(=O)[C@@]1(O)C[C@H]2O[C@]1(C)n1c3ccccc3c3c4c(c5c6ccccc6n2c5c31)C(=O)NC4	MAPK3 (Homo sapiens, UniProt P27361)	ADP-Glo	–	17.2 µM, added: substrate MBP	–	remaining activity	108%
OC1Cc2ccccc2CC1N1CCC2(CC1)C(Br)=Cc1ccccc12 (racemic)	SIGMAR1 (Homo sapiens, UniProt Q99720)	–	rat liver (sigma2), human sigma1	–	relative to: Ki sigma2 over Ki sigma1	selectivity ratio	22
CCCCCCCCCC(=O)O	Albumin (ALB, Homo sapiens, UniProt P02768)	isothermal titration calorimetry	–	concentration not given, 25 °C, first binding site, HSA 20 µM	–	enthalpy change	-14.9 kcal/mol
Cc1nn(C)cc1-c1nc2c(N3CCN(Cc4ccc(Cl)cc4)CC3)c(Cl)cnc2[nH]1	SIK1	binding, KINOMEscan	–	1 µM	–	remaining binding	100%
CN1CCN(c2cc(-c3ccncc3)c(-c3ccc4ccccc4c3)nn2)CC1	OPRK1 (Homo sapiens, UniProt P41145)	agonist, FLIPR	–	12.5 µM	–	activation	-1.5%
CC[C@H](CO)Nc1nc(NCc2ccc(-c3ccccn3)cc2)c2ncn(C(C)C)c2n1	CLK4 (Homo sapiens, UniProt Q9HAZ1)	KINOMEscan competition binding	–	10 µM, primary screen	direction not given	binding score	6
O=C(c1ccc(Cl)cc1)N1CCN2C(=O)N(OC(=O)N3CCOc4ccccc43)C(=O)C2C1 (stereo not shown)	Platelet-activating factor acetylhydrolase 2, cytoplasmic (PAFAH2, Homo sapiens, UniProt Q99487)	enzyme activity, inhibitor, MS-based ABPP	SW-620 in situ	10 µM, 2 h, 37 °C	relative to: compound over DMSO, lower = stronger inhibition	median ratio	1.1
CN(C(=O)n1cnc(-c2ccc[n+]([O-])c2)c1)C1CCCCC1	kainate receptor, rat	binding	–	50 µM, added: [3H]kainic acid	–	inhibition	4%
CC[N+]1(C)CCN(c2ccc(C(N)=O)cc2)CC1.[I-]	Nicotinic acetylcholine receptor alpha1/beta1/epsilon/delta (Mus musculus, UniProt P02716+P04756+P09690+P20782)	ion current, inhibitor, two-electrode voltage clamp	Xenopus oocytes	30 µM, after co-application, unit not given, added: ACh 30 µM	relative to: ACh alone	ACh response	0.452 ± 0.072
O=C(O)c1cccc(C(O)P(=O)(O)O)n1 (stereo not shown)	Metallo-beta-lactamase type 2 (Serratia marcescens, UniProt P52699)	inhibitor	–	added: nitrocefin	–	dissociation half-life	23 ± 1.3 min
[2H]c1c([2H])c([C@]2([2H])CCCN2C(=O)C(C)(C)Oc2ccc3cn[nH]c3c2)c([2H])c([2H])c1C([2H])([2H])[2H]	EIF2AK2 (Homo sapiens, UniProt P19525)	KINOMEscan	–	1 µM	relative to: DMSO control	remaining binding	98%
COc1ccc(N2C(=O)N(c3c(C)cccc3Cl)Cc3cnc(Nc4ccc(C5CCN(C)CC5)cc4OC)nc32)nc1	EPHA3 (Homo sapiens, UniProt P29320)	kinase activity	–	0.5 µM	–	inhibition	84%
C[C@H]1CN(c2n[nH]c3nc(N[C@H]4CC[C@H](NS(=O)(=O)CCC(F)(F)F)CC4)ncc23)CCO1	Neurofilament medium polypeptide (Homo sapiens, UniProt P07197)	Kinobeads competition, measured: NEFM	–	0.16 µM, unit not given	relative to: vehicle	remaining binding	0.89
